Measured values pooled from the literature.
Lines come from different studies, so protocols differ. ± gives the spread as reported.

SMILES = Nc1nc(-c2ccc(Cl)cc2)nc2[nH]nc(Nc3cccc(F)c3)c12; organism = Human rhinovirus 8; test = cytopathic effect, inhibitor; test system = HeLa; IC50 = 6.31 µM
SMILES = CCN(CC)CC#CCNc1ccnc2cc(Cl)ccc12; organism = Plasmodium falciparum; test = parasite growth; test system = RF12; IC50 = 0.071 µM
SMILES = COC1C=COC2(C)Oc3c(C)c(O)c4c(c3C2=O)C2=NC3(CCN(CC(C)C)CC3)NC2=C(NC(=O)C(C)=CC=CC(C)C(O)C(C)C(O)C(C)C(OC(=O)Nc2cnccn2)C1C)C4=O (stereo not drawn); organism = Mycobacteroides abscessus; test = bacterial growth; test system = subsp. abscessus Bamboo; IC50 = 0.018 µM
SMILES = c1ccc2c([C+](c3c[nH]c4ccccc34)c3c[nH]c4ccccc34)c[nH]c2c1; organism = Bifidobacterium longum; test = microbial growth, absorbance; IC50 = > 50 µM
SMILES = O=C(Nc1ccc([N+](=O)[O-])cc1Cl)c1cc(Cl)ccc1O; organism = human alphaherpesvirus 1; test system = K26 GFP, 3D adult human skin submerged; setting = 48 h; IC50 = 0.18 µM
SMILES = COc1ccc(Nc2n[nH]c3nc(-c4ccccc4)nc(N)c23)c(OC)c1; organism = Human rhinovirus 8; test = cytopathic effect, inhibitor; test system = HeLa; IC50 = 111 µM
SMILES = CNCc1ccc2c(c1)N(C(=O)OCc1c(F)c(F)c(F)c(F)c1F)[C@H](CNC(=N)N)[C@H]2NC(=O)C(=O)Nc1ccc(Cl)c(F)c1; organism = HIV-1; test = viral infection; test system = TZM-bl, CRF02_AG 235-47 Env pseudovirus; IC50 = 0.583 µM
SMILES = COC1C=COC2(C)Oc3c(C)c(O)c4c(c3C2=O)C2=NC3(CCN(CC(C)C)CC3)NC2=C(NC(=O)C(C)=CC=CC(C)C(O)C(C)C(O)C(C)C(OC(=O)Nc2cccnn2)C1C)C4=O (stereo not drawn); organism = Mycobacteroides abscessus; test = bacterial growth; test system = subsp. massiliense 095 clinical isolate; setting = mixed morphotype; IC50 = 0.038 µM
SMILES = c1ccc(CC(c2c[nH]c3ccccc23)c2c[nH]c3ccccc23)cc1; organism = Bifidobacterium longum; test = microbial growth, absorbance; IC50 = 29 µM
SMILES = COc1ccc(-c2nc(N3CCOCC3)c3sc(CN(C)c4ncc(C(=O)NO)cn4)cc3n2)cn1; organism = human alphaherpesvirus 1; test system = K26 GFP, 3D adult human skin air-liquid interface; setting = 48 h; IC50 = 0.24 µM
SMILES = CS(=O)(=O)c1ccc(Nc2n[nH]c3nc(-c4ccccc4)nc(N)c23)cc1; organism = Human rhinovirus 8; test = cytopathic effect, inhibitor; test system = HeLa; IC50 = 13.8 µM
SMILES = O=C1Nc2ccccc2C1(c1c[nH]c2ccccc12)c1c[nH]c2ccccc12; organism = Bifidobacterium longum; test = microbial growth, absorbance; IC50 = 23 µM
SMILES = CCc1ccc(-c2nc(N)c3c(Nc4ccc(F)cc4)n[nH]c3n2)cc1; organism = Human rhinovirus 8; test = cytopathic effect, inhibitor; test system = HeLa; IC50 = 0.57 µM
SMILES = c1ccc2c(Cc3c[nH]c4ccccc34)c[nH]c2c1; organism = Bifidobacterium longum; test = microbial growth, absorbance; IC50 = > 50 µM
SMILES = Cc1ccc(-c2nc(N)c3c(Nc4ccc(F)cc4)n[nH]c3n2)cc1; organism = Human rhinovirus 8; test = cytopathic effect, inhibitor; test system = HeLa; IC50 = 1.64 µM
SMILES = Cc1nc(N(C)C(=O)Cc2ccc(-c3ccccn3)cc2)sc1S(N)(=O)=O; organism = human alphaherpesvirus 1; test system = K26 GFP, 3D adult human skin air-liquid interface; setting = 48 h; IC50 = 0.25 µM
SMILES = Cc1ccc(-c2nc(N)c3c(Nc4ccc(F)cc4)n[nH]c3n2)cc1F; organism = Human rhinovirus 8; test = cytopathic effect, inhibitor; test system = HeLa; IC50 = 1.7 µM
SMILES = O=C(/C=C\n1cnc(-c2cc(C(F)(F)F)cc(C(F)(F)F)c2)n1)NNc1ccccn1; organism = human alphaherpesvirus 1; test system = K26 GFP, 3D adult human skin submerged; setting = 48 h; IC50 = 0.52 µM
SMILES = CCOC(=O)/C=C/[C@H](C[C@@H]1CCNC1=O)NC(=O)[C@@H](CC(=O)[C@@H](NC(=O)c1cc(C)on1)C(C)C)Cc1ccc(F)cc1; organism = rhinovirus C41a-mGL; test = viral replication, high-content imaging; IC50 = 0.01 µM
SMILES = CC1(C)CC(=O)c2c(C(F)(F)F)nn(-c3ccc(C(N)=O)c(N[C@H]4CC[C@H](O)CC4)c3)c2C1; organism = human alphaherpesvirus 1; test = viral replication; test system = K26 GFP-expressing, 3D neonatal skin, submerged; setting = 48 h; IC50 = 0.06 ± 0.07 µM
SMILES = CC(=O)C(C)(c1c[nH]c2ccccc12)c1c[nH]c2ccccc12; organism = Bifidobacterium longum; test = microbial growth, absorbance; IC50 = > 50 µM
